Measured values gathered from unrelated publications.
Numbered parts are unrelated; each lists some results of a single study.

Block 1
Target: RNA binding protein fox-1 homolog 2, RRM domain, GST-SBP tag (RBFOX2, Homo sapiens, UniProt O43251-10, residues 100-194)
Technique: RNA Bind-n-Seq
Molecule type: RNA
Matrix: in vitro
Tested at: 365 nM
Setting: natural RNA segment, single round, ends assumed
Baseline: no-protein control
Direction: higher = stronger binding
Residues (chain): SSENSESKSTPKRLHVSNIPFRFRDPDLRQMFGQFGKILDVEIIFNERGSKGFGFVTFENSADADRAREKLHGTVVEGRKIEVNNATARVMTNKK
Sequence	RBNS enrichment (R)
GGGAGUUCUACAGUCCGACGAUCUAGGUCCAGCCUGUGUAUGUUCUUUUGUUGGUUUGGAUUCUGAGAGUCCCAAGAGUCCAGGUUAGUUGACUCUGUUGGUCUUCCUGUGGAGUUCCUAUCCCCUUUGAGGCUGGAAUUCUCGGGUGCCAA	0.698
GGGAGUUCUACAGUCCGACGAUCGUGACCAGAGUAGACUUGGGGCAUGGCCAUUGGGGUCAUAUGUUUAUUUUUCAUUGUGUUUUGUGACCUCAGCAGGGUGGGGGUCUUCCUCCUUACUCUAAGCUAAAUCUUGGAAUUCUCGGGUGCCAA	1.22
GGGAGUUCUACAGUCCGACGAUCGUGUUCAGAGGGAGUCUGCUACAAACUAUCAGGGCAAAAUCUCACUGGAUUUCUCCACUGAAAACCUACUUGAGGUUUCUGGUCUGAAGGCUUAAGAGUCACAUCUUAGCUGGAAUUCUCGGGUGCCAA	0.267
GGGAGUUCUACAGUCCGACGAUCCUGGUUAGUACUGGUCCCCUUCUGGGCAACAUGGCCCUACCAGACACUGCUGCUGCCCCGUCGGCAUGUGCGGCGGCUACCUGAGCUGACCCCUGCUGAGCGUGAUGGUCUGGAAUUCUCGGGUGCCAA	0.824
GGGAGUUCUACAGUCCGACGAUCCUCUGUGCUAAGUUUUAGAACAGUUUAGAACCAUGCAGGGAUGCCGAGAGUCUGGAGUUAGCCCAGUGUUAGGGUAGGAAGGUAGUGGCAGCUUUCCAAAGGGCCUAAAAUGGAAUUCUCGGGUGCCAA	0.682
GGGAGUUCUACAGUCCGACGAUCCUAAUUAAAUCGUGAAAUGGCAGUAUAGUCCAUGAUAUCUAAGGAGUUGGCAAGCUUAACAAAACCCAUUUUUUAUAAAUGUCCAUCCUCCUGCAUUUGUUGAUACCACUUGGAAUUCUCGGGUGCCAA	0.552
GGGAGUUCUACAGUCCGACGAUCGUAUUUCUCCAUCUCCAGUUCUGGACAGUGCAGGUUGCCAAGAAAAGGGACCUAGUUUAGCCAUUGCCCUGGAGAUGAAAUUAAUGGAGGCUCAAGGAUAGAUGAGCUCUUGGAAUUCUCGGGUGCCAA	0.652
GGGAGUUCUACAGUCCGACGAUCUGCGGAGAGAGUGGGAGUGCUCAGGGAAAGAAGGUGAUUUGUAUUUGUCUCCCCGCUGAAAAGAACAGGAUUCAAGUCCAGAGUUUUCAUCUUCAGCCUGUGAUCUGUCCUGGAAUUCUCGGGUGCCAA	0.397
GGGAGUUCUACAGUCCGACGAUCCGCCCUCUCUAACUGGCCUGGCUCUGGAAGGGCUGGUGAGGACUCUGCCUCCUUGCCUGCCUACAAGGUGCCUGGUUUGCAGCAGGCUCUCCGCUCUUUCCAGCAAAGCUUGGAAUUCUCGGGUGCCAA	0.247
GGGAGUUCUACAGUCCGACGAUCUAAACAGCUCCUCCCAGCAUUUGCAUUUGCCCUUCUGUUUCUGUGAGGCCGGCAGCCCUUGGGGCUGGGGAGAGCACAGCUUGCCUUGGACUUGCUUCUGAACACGAAUUUGGAAUUCUCGGGUGCCAA	0.909
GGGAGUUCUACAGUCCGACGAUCACCGUCCCUGUGCUGUGGUCCCUUCUGGGCUCUAGUGUCAGGCCGGAGAACACCAGCCCCACCUGGACCCCGUGACCUUUGCCCUCUGACCUGCCACGGCCACCUCCGAGUGGAAUUCUCGGGUGCCAA	0.309
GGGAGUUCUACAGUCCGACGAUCAAGUCCUUAAUUUACAGUGGCCUGUAGCCUGUGGCCGUGGCCGUGGCUGUGGCCUGCUGCCUGCUCAUGAUGAGUGGCCUCUGUUGACUUGUUUCUGGUUCACGUGGGGCUGGAAUUCUCGGGUGCCAA	0.48

Block 2
Target: Sal-like protein 4, full length isoform A (SALL4, Homo sapiens, UniProt Q9UJQ4, residues 1-1053)
Sequence of UniProt Q9UJQ4 (whole entry, looked up): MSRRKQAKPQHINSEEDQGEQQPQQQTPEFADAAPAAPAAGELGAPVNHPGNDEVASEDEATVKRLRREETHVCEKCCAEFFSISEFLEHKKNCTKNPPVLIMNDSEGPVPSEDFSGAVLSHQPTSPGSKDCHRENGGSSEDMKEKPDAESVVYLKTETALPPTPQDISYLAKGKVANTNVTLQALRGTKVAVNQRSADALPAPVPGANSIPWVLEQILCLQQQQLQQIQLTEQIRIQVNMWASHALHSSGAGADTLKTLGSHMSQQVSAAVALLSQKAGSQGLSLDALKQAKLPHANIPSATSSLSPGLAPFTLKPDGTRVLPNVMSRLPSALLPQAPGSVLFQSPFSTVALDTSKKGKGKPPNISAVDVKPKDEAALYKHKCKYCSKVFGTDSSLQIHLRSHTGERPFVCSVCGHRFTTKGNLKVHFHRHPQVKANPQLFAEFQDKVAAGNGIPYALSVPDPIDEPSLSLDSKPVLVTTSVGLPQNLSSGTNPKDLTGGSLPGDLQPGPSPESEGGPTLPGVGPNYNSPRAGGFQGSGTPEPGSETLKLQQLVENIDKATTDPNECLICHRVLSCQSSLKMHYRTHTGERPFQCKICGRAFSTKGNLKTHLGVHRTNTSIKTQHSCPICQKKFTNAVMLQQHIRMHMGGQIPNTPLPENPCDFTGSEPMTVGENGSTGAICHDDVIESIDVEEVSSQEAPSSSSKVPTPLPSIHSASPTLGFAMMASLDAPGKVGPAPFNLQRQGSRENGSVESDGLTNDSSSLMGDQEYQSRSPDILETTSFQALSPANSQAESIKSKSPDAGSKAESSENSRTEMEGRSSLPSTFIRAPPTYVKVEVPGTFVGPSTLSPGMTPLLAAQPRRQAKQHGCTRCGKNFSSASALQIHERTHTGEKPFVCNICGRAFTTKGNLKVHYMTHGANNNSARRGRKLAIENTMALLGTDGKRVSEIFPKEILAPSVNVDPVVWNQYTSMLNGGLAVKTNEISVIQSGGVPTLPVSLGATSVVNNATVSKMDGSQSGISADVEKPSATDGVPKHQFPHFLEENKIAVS
Technique: universal PBM
Molecule type: double-stranded DNA, one strand shown
Matrix: in vitro
Tested at: 600 nM
Setting: 8-mer, flanks averaged, mean of replicates
Direction: higher = stronger binding
Sequence	E-score
AAAATACA	0.331
GTCCCCGA	-0.259
GGGGTAAA	0.0538
GGCATACA	0.0462
ACAAAACT	0.156
AACGCGCG	-0.138
ACAGCCTC	-0.244
AGTCTGGA	0.0138
GACACGCA	-0.0711
GGGGATGA	-0.24
AGGCAGCA	-0.00649
ACGTCGAG	-0.13
ACCATTAG	0.134
AAAAACCT	0.167
ACTGTTTG	0.158
TAAAGGGA	0.0644
GGCACAGA	-0.246
ACTCATCA	-0.00756
TACAAGGA	0.028
CGCCCCAG	-0.326
ACGCACGG	-0.28
GAACCAAC	-0.0278
ATCCATCC	0.107
CCACAAAA	0.0569
CTAACATC	-0.0315

Block 3
Target: Interferon regulatory factor 3, full length, phosphomimetic (IRF3, Homo sapiens, UniProt Q14653, residues 1-427, S386D/S396D/S398D/S402D/T404D/S405D)
Technique: protein-binding microarray
Molecule type: double-stranded DNA, one strand shown
Matrix: in vitro
Tested at: 2540 nM top
Setting: 60-bp whole probe
Added: salmon DNA 0.4 mg/ml
Baseline: random background probes
Direction: higher = stronger binding
Constant ends, left off below: GCCTAGCAC … GTCTTGATTCGCTTGACGCTGCTG
Construct (chain): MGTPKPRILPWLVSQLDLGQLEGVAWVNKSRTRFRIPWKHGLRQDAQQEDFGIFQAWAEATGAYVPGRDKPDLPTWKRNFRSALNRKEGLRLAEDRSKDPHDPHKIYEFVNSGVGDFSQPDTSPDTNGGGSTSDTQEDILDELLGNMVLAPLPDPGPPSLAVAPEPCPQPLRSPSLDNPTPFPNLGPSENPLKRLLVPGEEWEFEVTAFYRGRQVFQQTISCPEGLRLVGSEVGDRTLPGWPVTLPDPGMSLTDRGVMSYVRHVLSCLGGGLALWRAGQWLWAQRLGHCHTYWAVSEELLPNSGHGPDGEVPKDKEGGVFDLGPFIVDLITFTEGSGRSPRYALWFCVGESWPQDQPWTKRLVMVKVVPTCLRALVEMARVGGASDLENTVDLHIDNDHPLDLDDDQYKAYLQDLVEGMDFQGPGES
Sequence	fitted relative affinity
TCATTAATAAGGTTTCCAACTGTGCTA	2.53 z-score
TTAGGACTGGGGACTGGCTTAGTGCTA	-1.3 z-score
TCATCTTCAGGTTCTCCCACTGTGCTA	1.13 z-score
GCCGATCTCAGTTTCGAGACGTGCTAG	3.82 z-score
GACGGGATCGACACTGGGGACGTGCTA	-0.462 z-score
GACGGTTTACTTCTCCTGACGTGCTAG	3.16 z-score
TTAGAACTGTGTATCGATTAGTGCTAG	0.148 z-score
TCATAACTCATTTTCGTACTGTGCTAG	1.58 z-score
GACGGACTGGGGACTGAGGACGTGCTA	-0.956 z-score
CACGGTCTCGGTATCGGGACGTGCTAG	1.58 z-score
GTCATTATCCTTGTCCCTCCGTGCTAG	2.04 z-score
TACGGTATCGACTTTCGGGACGTGCTA	1.26 z-score
TTAGATATCGGGGATCGATTAGTGCTA	-0.287 z-score
TTAGGACTGGGGTTTCGGTCAGTGCTA	1.27 z-score
TCACATTTCCCTTGCCGACTGTGCTAG	1.78 z-score
TTGGGACTGGGGTATCGGTTAGTGCTA	-0.365 z-score
TCAGGTTTCACTTTAAAACTGTGCTAG	5.84 z-score
TTAGATTTCGGGACTGGATTCGTGCTA	1.31 z-score

Block 4
Target: Histone acetyltransferase KAT6A, winged helix 1, GST fusion (KAT6A, Homo sapiens, UniProt Q92794, residues 1-85)
Technique: protein binding microarray
Molecule type: double-stranded DNA, one strand shown
Matrix: in vitro
Tested at: not given
Setting: 8-mer, flanks averaged, mean of 2 arrays, mostly near background
Baseline: not given
Direction: higher = stronger binding
Target sequence (chain): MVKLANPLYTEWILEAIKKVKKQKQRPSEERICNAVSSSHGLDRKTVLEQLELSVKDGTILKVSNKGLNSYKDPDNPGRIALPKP
Sequence	E-score
AGGTAATA	-0.00181
GTAAGAAC	-0.0938
AAGCCACC	-0.14
CCCCCCCA	-0.176
CAAGCGCG	0.379
GTGTGGTA	-0.227
TCATACAA	-0.028
GAGTTATA	-0.0689
ACGGTAAC	0.271
CTGCACGC	0.237
CAGGGAAA	-0.0719
CATCCTTA	-0.203
GACACATC	-0.109
GCGAAAGA	-0.0642
GTAATGAA	-0.00458
AAGGAAAC	-0.177
AAGATAAA	-0.0593
ATATCAGC	0.0207
CACCCGCA	0.212
AGGGATTG	-0.06
CCACGTAA	-0.121
ATCTCAAC	-0.112

A few entries again (block 4):
Sequence	E-score
CCCCCCCA	-0.176
CACCCGCA	0.212
ATCTCAAC	-0.112
AAGCCACC	-0.14
